Measured values pooled from the literature.
A part holds a random share of what one study measured. Substitutions count along the parent as printed.

Sample 1
Target: Histone acetyltransferase KAT6A, winged helix 1, GST fusion (KAT6A, Homo sapiens, UniProt Q92794, residues 1-85)
Method: protein binding microarray
Molecule type: double-stranded DNA, one strand shown
Matrix: in vitro
Concentration: not given
Setting: 8-mer, flanks averaged, mean of 2 arrays, mostly near background
Relative to: not given
Reading: higher = stronger binding
Target sequence (chain): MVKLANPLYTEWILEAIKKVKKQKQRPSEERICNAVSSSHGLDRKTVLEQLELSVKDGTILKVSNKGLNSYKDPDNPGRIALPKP
Strand | E-score
CTAAGAAC | -0.14
GGACGTGA | -0.0616
CAGGTGAC | -0.059
GGTGAAGA | 0.0224
ATTGCAGA | -0.212
ATCTTGGG | -0.143
CACAAACA | -0.245
GGCGTGAA | 0.0968
GCGATAGA | 0.00131
CAATATAC | -0.0204
AAAACCCA | -0.127
ACATTTAC | 0.0146
AGTGTATG | -0.101
AAGGCATG | -0.183
CGGCAGAA | 0.234
TAGCAAAA | 0.0221
CGAGTAGC | 0.165
GCGGCTAA | 0.308
TGTACGAA | -0.0231
CCGGTTAG | 0.25
CCAATAAC | -0.0943
CACAGCCG | 0.313

Sample 2
Target: PABPC1L2, full length, GST fusion (mouse, UniProt A0ABA7IW68)
Method: RNAcompete
Molecule type: RNA
Matrix: in vitro
Concentration: 20 nM
Setting: 7-mer, probes averaged, single round
Relative to: mean of 7-mers
Reading: higher = stronger binding
Residues (chain): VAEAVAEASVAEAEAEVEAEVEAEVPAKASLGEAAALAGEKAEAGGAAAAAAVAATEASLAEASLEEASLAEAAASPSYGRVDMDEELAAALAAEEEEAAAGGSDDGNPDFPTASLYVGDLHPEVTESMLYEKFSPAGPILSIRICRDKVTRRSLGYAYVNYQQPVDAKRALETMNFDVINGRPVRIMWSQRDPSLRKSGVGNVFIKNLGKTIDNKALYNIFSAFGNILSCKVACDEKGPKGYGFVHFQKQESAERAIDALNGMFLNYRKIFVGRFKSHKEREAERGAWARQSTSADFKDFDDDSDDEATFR
Strand | 7-mer Z-score
GCCGAAA | 0.526
CAAAUCC | -0.00289
UCCCGUC | -0.527
UCGAUUG | -0.34
UUCAACC | -0.336
GUGAUAU | -0.229
CAGCCUC | -0.316
CUUAGAU | -0.226
UAAUGCA | 0.00254
CUGGGGG | 0.16
GAGUUCG | -0.42
CGUGAAC | -0.327
GCACCUU | -0.311
GACAGCU | -0.215
UCCAUCC | -0.51

Sample 3
Target: CCNA2, cyclin fold, Cln2 fusion (human)
Method: yeast growth competition, sequencing
Matrix: yeast
Setting: strong parent motif
Relative to: not given
Reading: higher = stronger binding
Starting sequence: REPIN1 docking peptide (human); QSFRGWVALVLHL
Change | normalised enrichment score
R4A | 1.01
G5A | 2.3
H12A | 1.41
L11A | 2.05
W6A | 0.992
V7A | 2.47

Sample 4
Target: RNA binding protein fox-1 homolog 2, RRM domain, GST-SBP tag (RBFOX2, Homo sapiens, UniProt O43251-10, residues 100-194)
Method: RNA Bind-n-Seq
Molecule type: RNA
Matrix: in vitro
Concentration: 365 nM
Setting: natural RNA segment, single round, ends assumed
Relative to: no-protein control
Reading: higher = stronger binding
Constant ends, left off below: GGGAGUUCUACAGUCCGACGAUC … UGGAAUUCUCGGGUGCCAA
Target sequence (chain): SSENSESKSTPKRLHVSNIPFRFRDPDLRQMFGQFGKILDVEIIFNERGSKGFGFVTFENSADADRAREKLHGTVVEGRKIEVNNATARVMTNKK
Strand | RBNS enrichment (R)
UGGACAGCAAGCAAGCCAUUUCCCCCCAUGUUCUCUUUCCUUCCUCCUACCCAUACUUCCUUCUCUGAGACUAUUCCAUGGGACCCACUUCCCUCUGGGUUCUCCUUUCC | 1.46
CUGUGGCACUCAGGGUCAAACAGACUAUCCAUUCCCCAGCAUGAAUGUGCCUUUUAAUUAGUGAUCUAGAAAGAAGUUCAGCCGAACCCACACCCCAACUCCCUCCCAAG | 4.66
GGGCGGGGAGGUCUUUUCCCUGCCCAUGUUUUUUUGUGCUUAUUAGAGGUGCAAACAGCGAGCGAUUAAGAACUGUUGGUCAACUGUUACGAGACUAUAAAAGGCUUAGC | 0.292
UUUGUUUGGCUGGCCACUAGGUGGCAGCAUUGGUUCUACUUCUCUGCUUUUUAAGAGAAAUUUCAGGAAGGAUGAUCAUUCCAGUUAGUUUGGCAUUUUUUGUCGUUUGU | 0.405
CUGGUGUGGUGUAGACACGGCUUCUUUUGGCAUAUUCUAGAUCAGACAGUGUCACUGACAAACAAGAGGGACCUGCUGGCCAGCCUUUGUUGUGCCCAAAGAUCCAGACA | 0.201
GACUGGAUAGACAUCUUGACUCUAUUCAGCCCGUAGUCUGUGAUCUGGAGAGUCCAGUUAAGGUAACCCAGAUUUUUGACAACCGCCUUCCUGCUGAGCCAAAGUUUUCU | 0.215
UCUUAGUGGCAUCUGCCAAUGAGAUAUCACCUUCCCCCUCUCCUCUUUAAUCUCUUGUUAAAUUACCCCUUUGAUAUUGGUGUCUGUCAGCGUUGGGGCUUCUUAGUAUC | 0.693
CUGAAUAUAUGCAAUAUCCGUCCGUCUGUCUGGGUCAAGCUCAGCUGUGGGGAGUCCCAGUGGUGGAGGGGACACAGCGGGCCCGUUCCCAAGUCCGUGAUUUCAGUUUU | 0.207
GCAGUUAUCCGUCUUGGCAGGAGGGGUUCUGGGGUUCGGGCUGGAUAGCAGAGGAGAGGGAUGAGCCCUGCGUUUAUUUCCCUUCUGCUCGUCCUUUUCCAGGACACAAU | 0.21
GGACUAAAGGACGGAGGCCGCCCCACCCCCUUCCCUUUCCUCCAAACCCCUAACUCCCUCCAGACACCCAGGGAAUACCCUCUGCCCCACAGGAUUGAAGACUGCUUGGC | 0.513
CAGAGUGCAAGUGUGGGUGUCGGUGUGAGUUCACCUAACAAAUCAUGACCUUUAUCAUCAACUCUGAUUCGAUCCAUGCGUUUUUUUUAUACUAAGCAAUAACUUUACGA | 15.9
UACGAUUUAAUAAUCGGCCCCUCCCUUCUAUUUGUCGGUUUUAUGUUUCUAUCCUUCAAUAGCUGCACUGUUUUCUAAUGUGCUGUAGAGUUUUUGAAAUAAUUUAUGCA | 7.6

Sample 5
Target: Interferon regulatory factor 5, full length, phosphomimetic (IRF5, Homo sapiens, UniProt Q13568-2, residues 1-514, K96S/S451D/S453D/S456D/S462D)
Method: protein-binding microarray
Molecule type: double-stranded DNA, one strand shown
Matrix: in vitro
Concentration: 250 nM
Setting: 60-bp whole probe
Added: salmon DNA 0.4 mg/ml
Relative to: random background probes
Reading: higher = stronger binding
Constant ends, left off below: GCCTAGCAC … GTCTTGATTCGCTTGACGCTGCTG
Strand | log fluorescence [z-score]
GACGGTTTCGGGACAGGGGACGTGCTA | 5.07
GACGATCTCAGATTCGAGACGTGCTAG | -0.123
TTAGGTTCCCTTTTCCTTAAGTGCTAG | 0.723
GTAGGCTTCTATGTAGTTGAGTGCTAG | -0.107
CTTCTTTTTTTTCTTTAAAAGTGCTAG | 1.45
GACGGTCGCGGTATCGGGACGTGCTAG | 0.481
GACGGACTGAGTATCGGGACGTGCTAG | 1.18
GACGGTTTCAGTCTCGGGACGTGCTAG | 3.07
TTAGATTTCAAACTGGATTAGTGCTAG | 0.0478
TTAGGATTCCTTATCCTTTAGTGCTAG | -0.0331
GACGAGTTCAGACTGGAGACGTGCTAG | -0.378
GACGATTTCGGGTTTCGAGATGTGCTA | 4.83
AGAGCCATCAATATCTGCAAGTGCTAG | 0.241
GACGGTTTCGGGACTGGCGACGTGCTA | 4.82
GACGAACTGAGTCTCGGGACGTGCTAG | -0.323
TCATCTTTTATTTTTTTACTGTGCTAG | 1.26
GACGATTTCAGTACCGAGACGTGCTAG | 1.22
TTAGTTTTCGGTATCGGTTAGTGCTAG | 10.7

Sample 6
Target: Transcriptional repressor CTCF (CTCF, Homo sapiens, UniProt P49711, residues 1-727, full length assumed)
Sequence of UniProt P49711 (whole entry, looked up): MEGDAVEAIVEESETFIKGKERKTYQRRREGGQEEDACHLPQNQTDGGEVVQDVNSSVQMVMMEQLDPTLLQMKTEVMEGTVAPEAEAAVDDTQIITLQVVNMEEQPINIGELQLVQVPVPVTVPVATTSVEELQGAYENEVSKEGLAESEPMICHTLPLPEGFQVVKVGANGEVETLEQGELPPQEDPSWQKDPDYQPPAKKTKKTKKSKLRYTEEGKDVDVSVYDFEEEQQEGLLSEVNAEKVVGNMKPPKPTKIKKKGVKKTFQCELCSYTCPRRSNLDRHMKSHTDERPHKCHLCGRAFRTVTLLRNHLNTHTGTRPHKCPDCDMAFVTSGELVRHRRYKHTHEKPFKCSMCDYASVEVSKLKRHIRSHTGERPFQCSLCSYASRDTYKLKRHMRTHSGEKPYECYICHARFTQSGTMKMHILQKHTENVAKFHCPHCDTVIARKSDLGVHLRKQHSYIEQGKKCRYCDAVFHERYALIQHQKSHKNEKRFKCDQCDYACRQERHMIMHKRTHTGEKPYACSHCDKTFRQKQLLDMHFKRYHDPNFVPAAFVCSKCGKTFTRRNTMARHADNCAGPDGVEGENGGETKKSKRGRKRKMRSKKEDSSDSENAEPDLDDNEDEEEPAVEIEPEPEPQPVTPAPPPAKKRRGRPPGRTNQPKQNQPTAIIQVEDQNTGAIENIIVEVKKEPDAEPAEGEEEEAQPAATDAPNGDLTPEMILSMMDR
Method: protein-binding microarray
Molecule type: double-stranded DNA, one strand shown
Matrix: in vitro
Concentration: not given
Setting: k-mer, scored over probes, only values ≥0.25
Reading: higher = stronger binding
Strand | E-score
AACGTGCG | 0.254
ATATAGAA | 0.297
GCCATATA | 0.283
ACTTGCGC | 0.313
TACATAAA | 0.297
ATGTGAAA | 0.344
GTTGATTA | 0.27
ATAAAACG | 0.356
ATTATAAC | 0.341
ATAATCAT | 0.31
ATATATTG | 0.271
ATATTGAT | 0.297
GAATAATA | 0.292
TATCTTAA | 0.278
AAAAACAA | 0.324
AGACAATA | 0.264
CACATGCG | 0.276
ATAACGTG | 0.304
AAACCATA | 0.281
CGCGTAAA | 0.278

Sample 7
Target: ABI1, truncated, D143A, DHFR fusion (Arabidopsis thaliana)
Method: DHFR PCA, deep sequencing
Matrix: yeast
Setting: methotrexate growth selection, single substitutions
Added: (+)-ABA 1.4 µM
Relative to: wild-type fitted maximum
Reading: higher = stronger binding
Starting sequence: PYL1, truncated, DHFR fusion (Arabidopsis thaliana); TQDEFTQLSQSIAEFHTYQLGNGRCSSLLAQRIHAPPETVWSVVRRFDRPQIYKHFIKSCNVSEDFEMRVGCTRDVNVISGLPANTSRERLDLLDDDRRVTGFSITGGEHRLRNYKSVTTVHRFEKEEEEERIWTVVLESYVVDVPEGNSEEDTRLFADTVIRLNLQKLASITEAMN; partner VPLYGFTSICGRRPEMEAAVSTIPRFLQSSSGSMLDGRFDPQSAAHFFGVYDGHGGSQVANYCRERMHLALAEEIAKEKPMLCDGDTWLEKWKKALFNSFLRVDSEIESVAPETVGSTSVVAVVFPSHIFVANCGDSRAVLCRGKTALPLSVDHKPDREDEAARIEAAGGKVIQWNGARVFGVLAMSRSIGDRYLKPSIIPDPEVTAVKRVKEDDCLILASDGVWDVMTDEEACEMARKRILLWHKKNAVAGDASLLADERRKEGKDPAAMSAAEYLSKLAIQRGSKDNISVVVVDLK
Change | relative binding score [%]
T39Q | 48.7
A84I | 13.5
P36G | 5.81
V118I | 52
D92K | 2.23
C72Q | 56.4
R45E | -2.22
T154K | -2.77
L82P | 7.23
L112T | -3.24
V142D | 7.16
E14L | 14
K54M | -8.9
F5T | 37.1
H110K | 12.3

Further values, each from its own experiment
Molecule | target | test | test system | conditions | how to read | quantity | value
PhoQ, residues 284 288 289 292 302 303 SLANKL | PhoP, residues 12 14 15 18 19 VHSCL (Escherichia coli, UniProt P23836) | Sort-seq, measured: YFP reporter | E. coli | PhoQ-PhoP variant library, added: 10 µM Mg2+ | relative to: high Mg2+ state, higher = stronger signaling | fold induction | 12

For quick reference, copied from above (sample 6):
Strand | E-score
ATAACGTG | 0.304
ATAAAACG | 0.356
GCCATATA | 0.283
AAAAACAA | 0.324
TATCTTAA | 0.278
CACATGCG | 0.276
AACGTGCG | 0.254
AAACCATA | 0.281
AGACAATA | 0.264
ATGTGAAA | 0.344
